# Measured values from different studies.
# Each numbered part is a random draw from the data of one study; scales do not carry over between parts.

# Block 1 — organism: Saccharomyces cerevisiae; effect on: cell growth; method: competitive growth deep sequencing; form: peptide; notes: peptide tiling library; together with: cyclin E2-Cln2 fusion; reading: direction not given
Molecule,enrichment score
GPVKLEFDVSDGAT,0.282
RQVRRDLFAF,-0.334
AEHPKPSACRNLFGPV,0.965
NEGVSNAVRRSLYIRD,-0.901
EPRNLLSLFEDTLDPT,0.521
KRCATPVIIDEILPSK,0.642
LENIEPLQVSFAVLSS,1.08
KVRRNLFNQELLSP,0.956
ASVLSKPIFCFVKD,0.106
VLPGGVPSPGASLTSM,-1.08
QYQVVDDIVSKLVFDF,0.612
YLYLLLTQSLWCRV,-0.616
HPESPPRKRLKSKGSD,4.35

# Block 2 — method: protein-binding microarray; form: double-stranded DNA, one strand shown; sample: in vitro; tested at: 2540 nM top; notes: 60-bp whole probe; together with: salmon DNA 0.4 mg/ml; baseline: random background probes; reading: higher = stronger binding; all sequences stand within: GCCTAGCAC … GTCTTGATTCGCTTGACGCTGCTG
# Target: Interferon regulatory factor 3, full length, phosphomimetic (IRF3, Homo sapiens, UniProt Q14653, residues 1-427, S386D/S396D/S398D/S402D/T404D/S405D)
# UniProt Q14653, sequence (whole entry, unmodified, looked up): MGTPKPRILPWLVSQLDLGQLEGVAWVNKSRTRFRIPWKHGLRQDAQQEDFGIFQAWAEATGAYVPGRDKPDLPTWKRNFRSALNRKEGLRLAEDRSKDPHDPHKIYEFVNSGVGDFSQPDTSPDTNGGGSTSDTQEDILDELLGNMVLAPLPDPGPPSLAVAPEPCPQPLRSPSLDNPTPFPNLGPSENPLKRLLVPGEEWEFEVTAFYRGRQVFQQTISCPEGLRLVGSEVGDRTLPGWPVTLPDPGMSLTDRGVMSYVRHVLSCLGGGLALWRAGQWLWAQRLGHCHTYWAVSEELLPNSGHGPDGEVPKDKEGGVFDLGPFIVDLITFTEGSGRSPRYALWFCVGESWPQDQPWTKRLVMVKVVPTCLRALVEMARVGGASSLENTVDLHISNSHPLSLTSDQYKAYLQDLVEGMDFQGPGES
Sequence,fitted relative affinity [z-score]
TTCACTTTAACTTATTCTCTAGTGCTA,0.785
GACGATTCCAGTATCGAGACGTGCTAG,1.31
TTAGGTATCGACTATCGGCTAGTGCTA,0.267
GACAGACTGGGTCTCGGGACGTGCTAG,-0.794
GCCGGTCTCGGTCTCGGGACGTGCTAG,2.2
TTAGATTTCGGGCCTGGATTAGTGCTA,0.223
TTAGATATCAATATCGATTAGTGCTAG,0.626
TTGGATTTCAGTTCCGATTAGTGCTAG,3.24
GAACTTCTGCATTACAGCTAGTGCTAG,0.109
TTAGGTATCCTTTTCTTTTAGTGCTAG,8.36
TCACCTTTTCTTTACTGACTGTGCTAG,3.59
GACGGACTGGACGTTCGGGACGTGCTA,-0.377
TCATCTGTCAGTTTTGAACTGTGCTAG,0.953
GATGGTCTCGGTTTCGGGACGTGCTAG,3.87
ATAGATTTCAGACTGGATTAGTGCTAG,0.629
TTAGGCCTCGGTCTCGGTTAGTGCTAG,-0.503
TTAGATTTCGGGTATCGATGAGTGCTA,1.24
TCAATCCCCAGTCTCATACTGTGCTAG,0.49
TCATGCTTTCATTTATTACTGTGCTAG,1.04
CTTGTGCTCCTTTTAATTTTGTGCTAG,2.78
CTGGCTATTTTATATGCTATGGTGCTA,0.0198
TTAGAACCGAGTTTCGATTAGTGCTAG,2.58
TCACTTCTGGGCTGTTTGACTGTGCTA,0.656
TTAGGTTTCGGTCTCGGTTCGTGCTAG,8.68
TTCACTTTCCAAAACATGAAGTGCTAG,4.49

# Block 3 — method: RNA Bind-n-Seq; form: RNA; sample: in vitro; tested at: 365 nM; baseline: no-protein control; reading: higher = stronger binding
# Target: RNA binding protein fox-1 homolog 2, RRM domain, GST-SBP tag (RBFOX2, Homo sapiens, UniProt O43251-10, residues 100-194)
# Notes: natural RNA segment, single round, ends assumed
# Target sequence (chain): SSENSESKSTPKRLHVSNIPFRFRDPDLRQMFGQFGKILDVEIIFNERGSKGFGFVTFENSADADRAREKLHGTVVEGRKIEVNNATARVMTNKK
Sequence,RBNS enrichment (R)
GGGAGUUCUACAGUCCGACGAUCCACUGAGGAGCACUCAGCCAGCAGUUCUCUAUCCUUAUCAGCCACAGAAUGCUUCUCACUGCCCGAACCUCUAUGCUCUCAUCUGUCACCAUGGCCUCCAACUCCUUCUGUGGAAUUCUCGGGUGCCAA,0.688
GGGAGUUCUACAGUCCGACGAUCAGUUCUGUCUGCACCUGCCCUCUAGUGACCCUGGGCCUGUCCUCUGUAGAGACUCUGGUACAGAGGGCAUGGGCACCUGCAGCAUUAUAGCUGUUCUGUCUCCUGGAGACUGGAAUUCUCGGGUGCCAA,0.476
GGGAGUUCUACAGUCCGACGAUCCAGGGCUUGCACGUCACUCUGGUCUGUUCAUCGUGGUUCACAGGGCAAGGUGAAAGACACUUGAAUUUCUCUUUUUAGCAAUCUUACUGUUUUCUGGUGCUGACUGCUACUGGAAUUCUCGGGUGCCAA,4.3
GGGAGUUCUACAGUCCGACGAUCCUGACAGCUUACGUGUCAGAGGGCAGAACUCAGCCAGUCCUGUGGUUUCAGGUGUUAAUAUGUAAACAAGCAUCUCAUUUAACUUCACUGUGCUCAGCUUUGAAAAGAACUGGAAUUCUCGGGUGCCAA,0.447
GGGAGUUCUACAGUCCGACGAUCUACAUUUAAAACUCAGCAUUAGUGCAUUGGGAAGGAUCUUUACUGCUUUGUGCUUGGCAUGUCGUUAUUUUCCAUUUGACAUUAGGGCCUUUCCAAAUGAAUGUGAGGAGUGGAAUUCUCGGGUGCCAA,1.38
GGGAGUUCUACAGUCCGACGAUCACUCCCUGUUAUUGUGUGCAAGUUUACACCAGGAUGCUCACUUGAUUUGUGAAUAUUUUUCAUUCCAUCAACAAGGGAGUUUAAAUACUAUAUGUGAGACUGACAAAAACUGGAAUUCUCGGGUGCCAA,0.4
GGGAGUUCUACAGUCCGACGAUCCACUUGAGAGAGGAGAGUGCUCCUCUCACCCAGGCCAGUGCUCCUGUCACUUCAGCACAUCUUCCACAGCUGCCCAGCUGUCUUUGGUGUGUCCCGGAGGAACAGGCUAAUGGAAUUCUCGGGUGCCAA,0.195
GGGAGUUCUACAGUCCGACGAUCCUGCAAGGCCCGCUUUUCAGGGACCAGUCCACCACCAUCUCCUCCACGUUGAGUGAAGCUCAUCCCAAGCAAGGAGCCCCAGUCUCCCGAGCGGGUAGGAGAGUUUCUUGUGGAAUUCUCGGGUGCCAA,0.367
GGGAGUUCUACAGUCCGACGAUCUAUAUUGAUUAGAAAAACGUCAAUUGUCUAUUCAAAAAAUUCUAUCUCUGUGAUAGAUUAUAUUUAUCCUAAUCUGUUGAUACCUCUGUUAAUUUGUUUUAAGAGAAUUAUGGAAUUCUCGGGUGCCAA,0.903
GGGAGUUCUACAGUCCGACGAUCAAGAAGAUAAUGCUUAUUCUGUUAAUGCACACUUUUAAGUUUUGAUGAUUUUUUACAGUGUUUUAGACCUUGAAUAGCUAGUGGCUUUUGCUAAAAACUUUUGGCAACAAUGGAAUUCUCGGGUGCCAA,0.628
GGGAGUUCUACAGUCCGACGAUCUGGUAGUGAUGUAUAUUUUACAUUUGUCAUUUCAGUGUUACUGGAGUUUUCUUCAUUGUGCACACAGGACAAAUCUGAUCUCUUUGGGAAAAAAUAGAAAUAAAACAAUCUGGAAUUCUCGGGUGCCAA,0.426
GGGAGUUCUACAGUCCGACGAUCGAUGGACAGGAAGGCUGGGAGAACUAACAGUUGGAUACUGAAGUUGCUACUGCGGACCUGUGGCUCCCUUGGCCAGCCAUGUUUUGGGAAAGAGUUCACAUCUUAGGUUUUGGAAUUCUCGGGUGCCAA,0.646

# Block 4 — method: universal PBM; form: double-stranded DNA, one strand shown; sample: in vitro; tested at: not given; reading: higher = stronger binding
# Target: Sal-like protein 4, full length isoform B (SALL4, Homo sapiens, UniProt Q9UJQ4-2, residues 1-616)
# Notes: 8-mer, flanks averaged, mean of replicates
# Residues (chain): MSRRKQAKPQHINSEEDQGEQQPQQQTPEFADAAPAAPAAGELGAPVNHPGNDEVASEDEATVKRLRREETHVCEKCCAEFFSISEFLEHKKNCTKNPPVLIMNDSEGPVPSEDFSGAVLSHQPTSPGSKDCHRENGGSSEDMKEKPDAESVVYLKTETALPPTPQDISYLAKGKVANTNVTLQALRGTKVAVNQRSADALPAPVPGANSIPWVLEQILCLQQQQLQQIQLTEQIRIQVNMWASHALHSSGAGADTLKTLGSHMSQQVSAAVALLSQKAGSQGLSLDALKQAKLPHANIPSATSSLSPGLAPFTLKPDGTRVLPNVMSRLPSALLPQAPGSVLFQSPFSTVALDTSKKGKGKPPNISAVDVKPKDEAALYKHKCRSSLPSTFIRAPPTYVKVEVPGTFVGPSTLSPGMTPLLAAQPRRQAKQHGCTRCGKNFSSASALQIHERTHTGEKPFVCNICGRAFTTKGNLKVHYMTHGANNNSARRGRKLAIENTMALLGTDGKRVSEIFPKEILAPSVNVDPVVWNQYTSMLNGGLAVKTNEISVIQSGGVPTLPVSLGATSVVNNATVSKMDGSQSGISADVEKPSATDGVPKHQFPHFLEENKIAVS
Sequence,E-score
GACGTGGA,-0.109
AGTTGTTG,0.0237
TCAGTGAA,-0.0938
TGCAGCCA,-0.189
CGAGTCCA,-0.203
CATTTTAG,0.188
CGAACCAA,-0.0432
GCACAAGA,-0.0772
CTAGGGGA,-0.171
AGCATTAC,0.0755
GGCGGTAC,-0.166
GCACTCCC,-0.208
CCATATAG,0.119
CGCGATCA,-0.134
CATCAACA,0.116
GTGGTTTA,0.0816
CTTCCCTA,-0.0511
ACCCGTCC,-0.188
AATTAGTG,0.167
ATTTGACC,-0.00762
GAAGTGTA,0.0124
AGATTTCC,-0.0514

# Block 5 — method: RNA Bind-n-Seq; form: RNA; sample: in vitro; tested at: 200 nM; notes: whole 134-nt RNA, ends assumed; together with: 150 mM LiCl; baseline: input library; reading: higher = stronger binding; library: 7-deaza-guanosine replaces G
# Target: Fragile X messenger ribonucleoprotein 1, C-terminal low-complexity region (Fmr1, Mus musculus, UniProt P35922)
Sequence,log2 enrichment
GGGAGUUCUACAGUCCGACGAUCCACAGACAACACGCAACCACACAGACACAGAGGGAAGGGGUUGGGAUGGGGACAGGGUGCACAGCAGGGCGGGGUAGGACCCCAGCCCCUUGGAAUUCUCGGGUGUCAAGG,1.11
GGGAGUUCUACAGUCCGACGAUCUUGAGAAGAAGCAAAAAGAGAUGGAUGAAGCUGCUACGGUGAGAGAAAACCCACUAUCGAUUCCACUCACCACUUACCUCCUUCCCUUACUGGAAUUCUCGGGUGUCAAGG,0.157
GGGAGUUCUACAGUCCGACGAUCAAGUCCUGUGCUACACAUCGUAUGUACCGAAUCGGGGAAAAGGGAAAAGGAAAAGGAAAGUAUUAUGUUACGCCGUUCGGAUCUGCACUUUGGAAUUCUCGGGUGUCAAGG,-0.746
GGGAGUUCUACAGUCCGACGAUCUUCUUGCCAGAGACGAAGAAGCGCAAGAAACGCAAGUCAGAGGAUGGCACGCCAGCGGAGGAUGGCACACCUGCAGCCACCGGCGGGAGCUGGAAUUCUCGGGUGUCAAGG,-1.56
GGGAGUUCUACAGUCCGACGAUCACCAUGCAGGUGGGCAUCUUUGGGAAGUGGGGCAAGGGCGGGAUAGGGAGGGGGGUAACACUUUGGGAACAGGUGGUCCCAGGUCGUUUCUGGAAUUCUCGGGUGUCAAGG,1.01
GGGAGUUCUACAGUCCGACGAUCAGUCCUGUGCUACACAUCGUAUGUACCGAAUCGGGCCCCGGGGCCCCGGGCCCCGGGAAAGUAUUAUGUUACGCCGUUCGGAUCUGCACUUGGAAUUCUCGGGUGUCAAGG,-1.04
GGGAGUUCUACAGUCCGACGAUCACCAUGCAGGUGGGCAUCUUUGGGAAGUGGGGCAAGGGGGGGAUAGGGAGGGGGGUAACACUUUGGGAACAGGUGGUCCCAGGUCGAUUCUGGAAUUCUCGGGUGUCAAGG,1.37
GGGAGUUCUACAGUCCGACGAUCUAACUUUAGAGGAGGAUCUGAUGGAUAUGGCAGUGGACGUGGAUUUGGGGAUGGCUAUAAUGGGUAUGGAGGUGGACCUGGAGGUGGCAAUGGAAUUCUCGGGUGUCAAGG,0.51
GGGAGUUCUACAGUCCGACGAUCAGUCCUGUGCUACACAUCGUAUGUACCGAAUCGGGUUUUGGGGUUUUGGGUUUUGGGGAAAGUAUUAUGUUACGCCGUUCGGAUCUGCACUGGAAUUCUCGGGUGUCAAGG,-0.477
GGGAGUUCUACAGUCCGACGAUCGUCCUGUGCUACACAUCGUAUGUACCGAAUCGGGAGGGAAAAAAAGGGAAAAAAAGGGAAAGUAUUAUGUUACGCCGUUCGGAUCUGCACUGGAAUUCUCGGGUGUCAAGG,0.667
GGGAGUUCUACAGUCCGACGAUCUUAAUAGAUUGAACUUCAAAAAAAAAUUCUUUCUUAAUUUCUGGAUUAAAAAGUAUGCCUGUGUCUUCUAGACCUUUACCAGAAGAUGAUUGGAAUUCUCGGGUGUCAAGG,-2.03

# Repeated from above (block 2):
Sequence,fitted relative affinity [z-score]
GCCGGTCTCGGTCTCGGGACGTGCTAG,2.2
TTAGATTTCGGGTATCGATGAGTGCTA,1.24
CTTGTGCTCCTTTTAATTTTGTGCTAG,2.78
TCACTTCTGGGCTGTTTGACTGTGCTA,0.656
TCATGCTTTCATTTATTACTGTGCTAG,1.04
GATGGTCTCGGTTTCGGGACGTGCTAG,3.87
TTAGGTTTCGGTCTCGGTTCGTGCTAG,8.68
TTGGATTTCAGTTCCGATTAGTGCTAG,3.24
ATAGATTTCAGACTGGATTAGTGCTAG,0.629
TTCACTTTCCAAAACATGAAGTGCTAG,4.49
